Results gathered from unrelated publications.
Lines come from different studies, so protocols differ. ± gives the spread as reported.
B1: UGT1A9 (Homo sapiens, UniProt O60656); chain GKLLVVPMDGSHWFTMRSVVEKLILRGHEVVVVMPEVSWQLGRSLNCTVKTYSTSYTLEDLDREFKAFAHAQWKAQVRSIYSLLMGSYNDIFDLFFSNCRSLFKDKKLVEYLKESSFDAVFLDPFDNCGLIVAKYFSLPSVVFARGILCHYLEEGAQCPAPLSYVPRILLGFSDAMTFKERVRNHIMHLEEHLLCHRFFKNALEIASEILQTPVTEYDLYSHTSIWLLRTDFVLDYPKPVMPNMIFIGGINCHQGKPLPMEFEAYINASGEHGIVVFSLGSMVSEIPEKKAMAIADALGKIPQTVLWRYTGTRPSNLANNTILVKWLPQNDLLGHPMTRAFITHAGSHGVYESICNGVPMVMMPLFGDQMDNAKRMETKGAGVTLNVLEMTSEDLENALKAVINDKSYKENIMRLSSLHKDRPVEPLDLAVFWVEFVMRHKGAPHLRPAAHDLTWYQYHSLDVIGFLLAVVLTVAFITFKCCAYGYRKCLGKKGRVKKAHKSKTH

CCCC(CCC)C(=O)O
minimal effective dose (seizure protection; male CF-1 mice; intraperitoneal, 0.5 h, together with: pentylenetetrazole 60 mg/kg subcutaneous): 200 mg/kg

oxytocin-d5
endogenous oxytocin level (rhesus monkey, CSF; intranasal, 80 IU, 0 to 60 min; baseline: intranasal saline): no effect

Cc1c(C)c2c(c(C)c1O)CCC(C)(C(=O)NN=C1C(=O)Nc3ccc(Br)cc31)O2 (stereo not shown)
minimal effective dose (seizure protection; male CF-1 mice; intraperitoneal, 0.5 h, together with: pentylenetetrazole 60 mg/kg subcutaneous): 30 mg/kg

COCCc1ccc(OCC(O)CNC(C)C)cc1 (stereo not shown)
lipid peroxide level (rats, adrenaline arrhythmia, plasma; intragastric, 2.57 g/kg daily, 14 days): 743 ± 18.5 nmol/L

insulin aspart
onset of action (euglycaemic glucose clamp; elderly type 1 diabetes; subcutaneous, 0.2 U/kg, blood glucose decrease ≥0.3 mmol/L): 29.1 min

COc1ccc(Cl)cc1C(=O)NCCc1ccc(S(=O)(=O)NC(=O)NC2CCCCC2)cc1
TBARS (STZ-induced diabetic rat, liver; oral, 0.5 mg/kg, day 28): 2.56 ± 0.69 nmol MDA/mg protein

insulin glulisine
peak plasma glucose (obese type 2 diabetes patients; subcutaneous, 0.2 U/kg, before standard meal): 170 mg/dL

COc1cc(OC)c2c(=O)cc(-c3cc(C)c(OC[C@H](O)CN4CCN(C)CC4)c(C)c3)oc2c1
neutrophilic airway inflammation (histology; C57BL/6J mouse, poly(I:C) model; oral or intraperitoneal, 10 mg/kg): inhibited

Cc1cc(-c2ccc(C(=O)[C@@H]3CCCC[C@H]3C(=O)Nc3cnn4c3C(=O)NCC4)cc2)n[nH]1
IC50 (urinary LTE4 level, measured: leukotriene E4; human, urine; versus trough plasma concentration): 0.8 nM

O=c1cc(N2CCOCC2)oc2c(-c3ccccc3)cccc12
VEGF level (Western blot; mouse myocardial infarction, myocardium; intraperitoneal, 1.5 mg/kg/day, together with: PEG-exendin-4): inhibited

CC[C@H](C)[C@H](NC(=O)[C@H](CO)NC(=O)[C@H](CCC(N)=O)NC(=O)[C@H](CC(C)C)NC(=O)[C@H](Cc1ccc(O)cc1)NC(=O)[C@H](CCCCN)NC(=O)[C@H](CCCCN)NC(=O)[C@H](C)NC(=O)[C@H](C)NC(=O)[C@@H](NC(=O)[C@H](CCC(N)=O)NC(=O)[C@H](CCCCN)NC(=O)[C@H](CCCNC(=N)N)NC(=O)[C@H](CC(C)C)NC(=O)[C@H](CCCNC(=N)N)NC(=O)[C@@H](NC(=O)[C@H](Cc1ccc(O)cc1)NC(=O)[C@H](CC(N)=O)NC(=O)[C@H](CC(=O)O)NC(=O)[C@@H](NC(=O)[C@H](Cc1ccccc1)NC(=O)[C@@H](NC(=O)[C@H](C)NC(=O)[C@H](CC(=O)O)NC(=O)[C@H](CO)NC(=O)[C@@H](N)Cc1c[nH]cn1)C(C)C)[C@@H](C)O)[C@@H](C)O)C(C)C)C(=O)N[C@@H](CCCCN)C(=O)N[C@@H](CC(N)=O)C(=O)N[C@@H](CCCCN)C(=O)N[C@@H](CCCNC(=N)N)C(=O)N[C@@H](Cc1ccc(O)cc1)C(N)=O
first-phase insulin secretion AUC (IPGTT; db/db mouse; intraperitoneal, 20 nmol/kg, 5 to 15 min, dosed 15 min before glucose; baseline: normal saline): 0.82 fold

CCC1SC(NN=C2c3ccccc3-c3nc4cc(F)ccc4nc32)=NC1=O (stereo not shown)
blood glucose (mice with STZ-induced diabetes; oral, 25 mg/kg, 144 h, day 6): 254 ± 9.7 mg/dL

CS/C(S)=N/CCCC[S+](C)[O-] (racemic)
mRNA fold change (RT-PCR, measured: Nos2 (inducible); rat, liver; oral gavage, 200 mg/kg, 96 h, dosed for four days; baseline: vehicle): 0.658

CC1(C)CCC(c2ccc(Cl)cc2)=C(CN2CCN(c3ccc(C(=O)NS(=O)(=O)c4ccc(N[C@H](CCN5CCOCC5)CSc5ccccc5)c(S(=O)(=O)C(F)(F)F)c4)cc3)CC2)C1
EC50 (cell kill, PI exclusion flow cytometry; normal CD21+ B lymphocytes, dog, lymph node; 24 h): 430 ± 440 nM

Cc1cc(C)cc(/C=C(\C(=O)c2cc(C)[nH]c(=O)c2C(=O)N2CCCCC2)c2cc(C)cc(C)c2)c1
IC50 (cell proliferation, MTT; 35404 melanoma brain metastasis, human patient-derived; 72 h, tested up to 10 µM): > 10000 nM

CC(C)NC(=O)[C@H]1CCC[C@H]1Nc1nc(Nc2ccc(C(=O)N(C)C3CCN(C)CC3)cc2)ncc1C(F)(F)F
effective dose (immunohistochemistry, measured: phospho-histone H3; advanced solid tumour patients, skin biopsy epidermis; day 2 of cycle 1, dosing): ≥ 43 mg

CC(C)C[C@H](NC(=O)[C@H](CO)NC(=O)[C@H](CCCNC(=N)N)NC(=O)[C@H](CC(=O)O)NC(=O)[C@H](CCC(=O)O)NC(=O)[C@H](C)NC(=O)[C@@H]1CCCN1C(=O)[C@H](C)NC(=O)[C@H](CCC(=O)O)NC(=O)[C@@H]1CCCN1C(=O)[C@@H]1CCCN1)C(N)=O
HVA level (HPLC-EC; rat F344, unilateral 6-OHDA lesion, ipsilateral striatum; intranasal, 300 µg daily, 5 weeks post lesion): 21 ± 20 ng/g

Cc1ccc(-c2nn(-c3ccccc3)cc2C=NNC2=NC(=O)C(=C3c4ccccc4-c4nc5cc(F)ccc5nc43)S2)cc1
blood glucose (mice with STZ-induced diabetes; oral, 25 mg/kg, 288 h, day 12): 252 ± 60.8 mg/dL

CC(=O)N1CCC(NC(=O)NC23CC4CC(CC(C4)C2)C3)CC1
mechanical withdrawal threshold increase (rat, LPS inflammatory pain; sc, 3 mg/kg; baseline: vehicle): > 20%

c1cc(-c2cnn3cc(-c4ccc(OCCN5CCCCC5)cc4)cnc23)ccn1
EC100 dorsalization (zebrafish embryos; from 3 hpf): 2 µM

GLFHDQAGPPAGYEF
inhibition of TNF-α release (ELISA or Luminex; peptide, mouse peritoneal macrophages, C57BL/6 mouse; optimal dose within 0.1 pM to 100 nM, 1 h pretreatment, 15 h stimulation, together with: LPS 100 ng/mL + IFN-γ 20 ng/mL; baseline: LPS/IFN-γ stimulated control): 0%

COc1c(C)c(C)c2c(c1C)CCC(C)(C(=O)NN=C1C(=O)Nc3cc(Cl)ccc31)O2 (stereo not shown)
minimal effective dose (seizure protection; male CF-1 mice; intraperitoneal, 0.5 h, together with: maximal electroshock): 100 mg/kg

Cc1cc(NS(=O)(=O)c2ccc(N=NN(C)O)cc2)no1
inhibition (paw oedema; rat, carrageenan oedema; oral, 100 mg/kg, 4 h after carrageenan; baseline: vehicle): 80.3%

AGEDPHGYFLPGQFA
optimal dose (cytokine expression suppression; peptide, mouse peritoneal macrophages, C57BL/6 mice; 1 h pretreatment, together with: LPS/IFN-γ 15 h): 1 pM

c1ccc2c(c1)ccc1c3c(ccc12)CCC3
minimal protective dose (adrenal haemorrhage prevention; rat; oral, together with: 7,12-DMBA 5 mg i.v.): 2 mg

CC(=O)c1sc(N=C2c3ccccc3-c3nc4cc(F)ccc4nc32)nc1C
blood glucose (mice with STZ-induced diabetes; oral, 25 mg/kg, 216 h, day 9): 252 ± 13.5 mg/dL

Cc1ccc(N(O)N=Nc2ccc(S(=O)(=O)Nc3onc(C)c3C)cc2)cc1
inhibition (paw oedema; rat, carrageenan oedema; oral, 100 mg/kg, 2 h after carrageenan; baseline: vehicle): 45.4%

NCCCC[C@@H]1NC(=O)[C@@H](Cc2c[nH]c3ccccc23)NC(=O)[C@H](c2ccccc2)NC(=O)[C@@H]2C[C@@H](OC(=O)NCCN)CN2C(=O)[C@H](Cc2ccccc2)NC(=O)[C@H](Cc2ccc(OCc3ccccc3)cc2)NC1=O
GH AUC(0-2h) change (GHRH-stimulated GH secretion; healthy human volunteers; subcutaneous, 30 µg, together with: GHRH 1 µg/kg; baseline: pre-dose baseline): -45.3%

Cc1ccc(S(=O)(=O)NC(=O)NN2CC3CCCC3C2)cc1 (stereo not shown)
blood glucose (mice with STZ-induced diabetes; oral, 25 mg/kg, 288 h, day 12): 132 ± 3.7 mg/dL

B1 (UGT1A9)
Vmax (O=C(/C=C/c1ccc(O)cc1)c1ccccc1; steady-state kinetics; pH 7.4, 37 °C): 5.48e-05 µmol/min/mg

Cc1ccc2cc3c(ccc4ccccc43)cc2c1
minimal protective dose (adrenal haemorrhage prevention; rat; oral, together with: 7,12-DMBA 5 mg i.v.): 0.5 mg

Cc1ccc(C(=O)Nc2ccnc(S(N)(=O)=O)c2)c(N2CCCC(F)(F)CC2)n1
IC50 (capsaicin-induced flinching, inhibitor; humanized NaV1.8 rats, unbound plasma concentration; baseline: vehicle): 6.78 nM

Bevacizumab
inhibition (lung metastasis; BGC-823, BALB/c NOD SCID mice, xenograft; dose not given): 62.7%

SIYNFEKL
IL-2+ IFN-γ+ cells (flow cytometry, measured: CD44hi CD8+ T cells; peptide, OT-I CD8+ T cells, mouse; dose not given, primed 5 days, TGF-β1 from day 2 onward, together with: 20 ng/mL TGF-β1): 12.9%

Cc1c(C)c2c(c(C)c1O)CCC(C)(C(=O)NN=C1C(=O)N(C)c3cc(Cl)ccc31)O2 (stereo not shown)
minimal effective dose (seizure protection; male CF-1 mice; intraperitoneal, 0.5 h, together with: pentylenetetrazole 60 mg/kg subcutaneous): 100 mg/kg

SIIVFEKL
IL-2+ IFN-γ+ cells (flow cytometry, measured: CD44hi CD8+ T cells; peptide, OT-I CD8+ T cells, mouse; dose not given, primed 5 days, restimulated 100 ng/mL OVA257, together with: no TGF-β1): 3.93%

CCC(=O)N1CCC(NC(=O)Nc2ccc(OC(F)(F)F)cc2)CC1
mechanical withdrawal threshold (von Frey; Sprague-Dawley rat, streptozotocin diabetic; intraperitoneal, 3 mg/kg, 90 min): 79.4 ± 2.7 g

C[n+]1cccc2c(N)cccc21
body weight gain (diet-induced obese mice; subcutaneous, 32 mg/kg/day, high-fat diet, once daily until termination): 0.9 g

Cc1c(C)c2c(c(C)c1OCc1ccccc1)CCC(C)(C(=O)NN=C1C(=O)N(C)c3ccccc31)O2 (stereo not shown)
minimal effective dose (seizure protection; male CF-1 mice; intraperitoneal, 0.5 h, together with: maximal electroshock): 100 mg/kg

O=C1CSC(N=C2c3ccccc3-c3nc4cc(F)ccc4nc32)=N1
blood glucose (mice with STZ-induced diabetes; oral, 25 mg/kg, 216 h, day 9): 304 ± 7.1 mg/dL
